Published values from different studies.
Parts stem from different laboratories: compare values within a part only. ± gives the spread as reported.
Chain of UniProt P34913 (whole entry, looked up): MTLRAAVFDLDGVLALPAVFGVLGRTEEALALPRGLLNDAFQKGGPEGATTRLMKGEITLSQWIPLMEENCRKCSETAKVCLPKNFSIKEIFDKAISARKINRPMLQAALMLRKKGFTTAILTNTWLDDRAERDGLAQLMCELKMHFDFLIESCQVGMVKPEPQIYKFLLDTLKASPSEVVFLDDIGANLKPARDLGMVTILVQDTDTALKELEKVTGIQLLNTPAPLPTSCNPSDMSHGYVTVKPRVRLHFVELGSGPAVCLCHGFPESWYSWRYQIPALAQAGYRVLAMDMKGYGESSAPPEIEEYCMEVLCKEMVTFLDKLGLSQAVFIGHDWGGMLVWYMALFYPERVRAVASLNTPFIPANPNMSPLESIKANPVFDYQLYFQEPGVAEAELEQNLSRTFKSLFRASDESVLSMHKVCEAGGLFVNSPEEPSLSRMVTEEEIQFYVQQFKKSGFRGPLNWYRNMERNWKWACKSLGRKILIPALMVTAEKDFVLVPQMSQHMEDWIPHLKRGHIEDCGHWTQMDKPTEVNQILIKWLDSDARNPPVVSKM
Chain of UniProt Q9NRL2 (whole entry, unmodified, looked up): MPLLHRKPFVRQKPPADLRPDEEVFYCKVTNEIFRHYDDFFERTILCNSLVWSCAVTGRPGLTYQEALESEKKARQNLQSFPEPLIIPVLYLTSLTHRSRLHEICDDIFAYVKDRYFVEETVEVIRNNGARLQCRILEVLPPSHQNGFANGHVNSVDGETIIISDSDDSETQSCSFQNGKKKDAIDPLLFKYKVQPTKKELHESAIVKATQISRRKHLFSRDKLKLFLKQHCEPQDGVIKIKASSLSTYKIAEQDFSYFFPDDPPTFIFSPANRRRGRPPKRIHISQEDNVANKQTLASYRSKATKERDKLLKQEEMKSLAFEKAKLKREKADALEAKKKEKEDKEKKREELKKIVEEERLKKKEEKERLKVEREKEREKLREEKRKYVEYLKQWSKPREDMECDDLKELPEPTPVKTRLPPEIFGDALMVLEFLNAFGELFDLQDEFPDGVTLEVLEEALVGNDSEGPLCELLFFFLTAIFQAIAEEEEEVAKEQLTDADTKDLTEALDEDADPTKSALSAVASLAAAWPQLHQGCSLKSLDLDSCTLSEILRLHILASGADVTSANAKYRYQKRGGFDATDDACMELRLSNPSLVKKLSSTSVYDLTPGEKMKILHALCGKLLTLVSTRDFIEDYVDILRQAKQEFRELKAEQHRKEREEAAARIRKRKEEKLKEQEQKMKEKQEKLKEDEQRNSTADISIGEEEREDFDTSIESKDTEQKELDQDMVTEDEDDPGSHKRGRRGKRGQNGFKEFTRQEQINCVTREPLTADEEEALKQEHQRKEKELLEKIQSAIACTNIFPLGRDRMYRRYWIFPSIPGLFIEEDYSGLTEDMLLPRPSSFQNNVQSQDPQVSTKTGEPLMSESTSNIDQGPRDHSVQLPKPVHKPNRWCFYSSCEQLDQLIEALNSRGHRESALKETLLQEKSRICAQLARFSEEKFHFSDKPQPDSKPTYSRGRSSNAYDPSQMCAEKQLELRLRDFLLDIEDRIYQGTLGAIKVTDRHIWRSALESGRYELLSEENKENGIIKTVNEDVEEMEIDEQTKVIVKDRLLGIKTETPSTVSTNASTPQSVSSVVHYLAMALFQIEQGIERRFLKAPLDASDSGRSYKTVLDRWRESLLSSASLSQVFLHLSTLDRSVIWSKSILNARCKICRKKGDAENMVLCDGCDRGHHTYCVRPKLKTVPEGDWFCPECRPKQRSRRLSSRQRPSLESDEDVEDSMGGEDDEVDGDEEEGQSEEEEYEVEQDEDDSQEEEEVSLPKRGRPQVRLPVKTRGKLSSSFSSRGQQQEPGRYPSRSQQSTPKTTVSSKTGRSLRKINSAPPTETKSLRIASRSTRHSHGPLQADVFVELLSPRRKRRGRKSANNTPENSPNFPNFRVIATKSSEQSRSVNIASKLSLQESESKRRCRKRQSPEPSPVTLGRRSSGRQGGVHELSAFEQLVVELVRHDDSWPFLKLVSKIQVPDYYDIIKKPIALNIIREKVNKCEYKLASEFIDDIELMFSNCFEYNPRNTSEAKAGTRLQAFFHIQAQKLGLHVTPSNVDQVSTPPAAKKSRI
Chain of UniProt O00519 (whole entry, looked up): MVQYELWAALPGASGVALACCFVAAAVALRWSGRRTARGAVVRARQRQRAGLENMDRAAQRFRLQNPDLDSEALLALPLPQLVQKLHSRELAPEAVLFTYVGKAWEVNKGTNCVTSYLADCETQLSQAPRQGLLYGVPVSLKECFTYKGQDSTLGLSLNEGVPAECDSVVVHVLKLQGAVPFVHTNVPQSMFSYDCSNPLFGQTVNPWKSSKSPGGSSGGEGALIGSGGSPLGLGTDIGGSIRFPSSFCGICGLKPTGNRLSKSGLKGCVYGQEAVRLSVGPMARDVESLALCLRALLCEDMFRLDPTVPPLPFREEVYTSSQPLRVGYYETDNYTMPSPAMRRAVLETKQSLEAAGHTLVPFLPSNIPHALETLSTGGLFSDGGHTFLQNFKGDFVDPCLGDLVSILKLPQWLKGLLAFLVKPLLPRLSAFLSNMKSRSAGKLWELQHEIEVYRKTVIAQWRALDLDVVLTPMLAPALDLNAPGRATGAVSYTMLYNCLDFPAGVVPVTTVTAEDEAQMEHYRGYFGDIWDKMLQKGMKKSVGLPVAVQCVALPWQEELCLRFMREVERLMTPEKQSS

Sample 1
SMILES: Cc1cc(OCc2nnc(SC3CCCC3)n2-c2cccnc2)ccc1-c1ccc(S(C)(=O)=O)cc1
| cell line | GI50 |
| --- | --- |
| Hs-578T | 2.12 µM |
| COLO 205 | 1.58 µM |
| SNB-75 | 1.27 µM |
| SK-MEL-5 | 0.0367 µM |
| HOP-62 | 2.38 µM |

Further values, each from its own experiment
| SMILES | target or system | test | system | conditions | endpoint | value |
| --- | --- | --- | --- | --- | --- | --- |
| O=C(Nc1ccc(-c2ccc3ccccc3n2)cc1)C1CCN(Cc2cccc(F)c2)CC1 | Fatty-acid amide hydrolase 1 (FAAH, Homo sapiens, UniProt O00519) | – | – | – | IC50 | 0.197 µM |
| N#Cc1ccc(-c2csc(CNC(=O)C34CC(CN(C(=O)COCCF)C3)C4)n2)cc1 | – | – | human, both sexes, liver microsomes | 0.5 µM | CLint | < 3 µL/min/mg |
| CC[C@@H]1C(=O)N(C)c2cnc(Nc3ccc(C(=O)NC4CCN(C)CC4)cc3OC)nc2N1C1CCCC1 | Bromodomain adjacent to zinc finger domain protein 1A (BAZ1A, Homo sapiens, UniProt Q9NRL2) | thermal stabilisation, thermal shift | – | 10 µM | ΔTm | 0.2 ± 0.46 °C |
| C#Cc1cccc(Nc2ncnc3cc(OCCOC)c(OCCOC)cc23)c1 | HepG2 | MTT | – | 1.6 µg/mL, maintenance medium, 2% serum | viability | 57% |
| Cc1ccc(S(=O)(=O)Nc2c(N3CCC(NC(=O)Nc4ccc(OC(F)(F)F)cc4)CC3)c(=O)c2=O)cc1 | Bifunctional epoxide hydrolase 2 (EPHX2, Homo sapiens, UniProt P34913) | – | – | – | IC50 | 0.0054 ± 0.0007 µM |

For quick reference, copied from above (further values, each from its own experiment):
| SMILES | target or system | test | system | conditions | endpoint | value |
| --- | --- | --- | --- | --- | --- | --- |
| Cc1ccc(S(=O)(=O)Nc2c(N3CCC(NC(=O)Nc4ccc(OC(F)(F)F)cc4)CC3)c(=O)c2=O)cc1 | Bifunctional epoxide hydrolase 2 (EPHX2, Homo sapiens, UniProt P34913) | – | – | – | IC50 | 0.0054 ± 0.0007 µM |
